Assay results collected from several papers.
Each line is one published result; not all experiments were run side by side. Values joined by “and” are separate records of one study, mostly repeats; a detail may differ. ± gives the spread as reported.
CKB: CKB (Homo sapiens, UniProt P12277)
Chain of UniProt P12277 (whole entry, looked up): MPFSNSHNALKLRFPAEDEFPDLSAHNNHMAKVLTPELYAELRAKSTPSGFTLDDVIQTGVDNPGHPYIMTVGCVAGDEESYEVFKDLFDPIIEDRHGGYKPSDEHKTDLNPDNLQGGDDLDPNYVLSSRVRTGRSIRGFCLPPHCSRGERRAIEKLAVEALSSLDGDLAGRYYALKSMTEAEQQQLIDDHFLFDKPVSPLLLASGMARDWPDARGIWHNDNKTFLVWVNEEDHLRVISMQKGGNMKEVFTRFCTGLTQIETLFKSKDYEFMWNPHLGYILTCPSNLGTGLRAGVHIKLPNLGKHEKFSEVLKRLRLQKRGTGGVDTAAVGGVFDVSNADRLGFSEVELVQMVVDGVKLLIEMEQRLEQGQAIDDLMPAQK
CASP7: Caspase-7 (CASP7, Homo sapiens, UniProt P55210)
Chain of UniProt P55210 (whole entry, looked up): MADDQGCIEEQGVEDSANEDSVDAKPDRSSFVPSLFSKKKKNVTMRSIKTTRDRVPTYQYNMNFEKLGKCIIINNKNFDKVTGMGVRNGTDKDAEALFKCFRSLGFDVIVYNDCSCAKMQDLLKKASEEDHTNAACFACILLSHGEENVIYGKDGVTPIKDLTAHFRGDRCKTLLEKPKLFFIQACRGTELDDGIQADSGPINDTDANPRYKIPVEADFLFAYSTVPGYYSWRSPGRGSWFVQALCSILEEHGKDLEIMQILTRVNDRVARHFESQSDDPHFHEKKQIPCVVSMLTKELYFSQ
T1: G-quadruplex DNA, G-quadruplex (Homo sapiens); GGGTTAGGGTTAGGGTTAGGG
Chain of UniProt P46089 (whole entry, looked up): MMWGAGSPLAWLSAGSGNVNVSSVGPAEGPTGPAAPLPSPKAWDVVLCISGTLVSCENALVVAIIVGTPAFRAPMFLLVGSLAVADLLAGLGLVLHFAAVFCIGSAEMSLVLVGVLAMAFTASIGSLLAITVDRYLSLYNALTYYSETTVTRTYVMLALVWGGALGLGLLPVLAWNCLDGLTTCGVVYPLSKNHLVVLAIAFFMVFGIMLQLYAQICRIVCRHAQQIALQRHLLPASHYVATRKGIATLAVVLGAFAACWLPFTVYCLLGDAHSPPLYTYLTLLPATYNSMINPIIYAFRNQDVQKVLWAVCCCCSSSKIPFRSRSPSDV
Chain of UniProt Q99873 (whole entry, looked up): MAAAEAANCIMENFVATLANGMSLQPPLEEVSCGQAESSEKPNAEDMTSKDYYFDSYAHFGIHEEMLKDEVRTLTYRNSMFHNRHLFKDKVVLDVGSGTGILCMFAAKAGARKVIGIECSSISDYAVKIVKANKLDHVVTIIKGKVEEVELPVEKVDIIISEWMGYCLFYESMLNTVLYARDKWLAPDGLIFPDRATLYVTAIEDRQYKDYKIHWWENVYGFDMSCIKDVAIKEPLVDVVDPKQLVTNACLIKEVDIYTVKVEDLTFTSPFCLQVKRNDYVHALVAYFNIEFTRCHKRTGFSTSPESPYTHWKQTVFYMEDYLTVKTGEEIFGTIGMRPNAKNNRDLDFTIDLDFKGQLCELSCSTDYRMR
Chain of UniProt P19491 (whole entry, looked up): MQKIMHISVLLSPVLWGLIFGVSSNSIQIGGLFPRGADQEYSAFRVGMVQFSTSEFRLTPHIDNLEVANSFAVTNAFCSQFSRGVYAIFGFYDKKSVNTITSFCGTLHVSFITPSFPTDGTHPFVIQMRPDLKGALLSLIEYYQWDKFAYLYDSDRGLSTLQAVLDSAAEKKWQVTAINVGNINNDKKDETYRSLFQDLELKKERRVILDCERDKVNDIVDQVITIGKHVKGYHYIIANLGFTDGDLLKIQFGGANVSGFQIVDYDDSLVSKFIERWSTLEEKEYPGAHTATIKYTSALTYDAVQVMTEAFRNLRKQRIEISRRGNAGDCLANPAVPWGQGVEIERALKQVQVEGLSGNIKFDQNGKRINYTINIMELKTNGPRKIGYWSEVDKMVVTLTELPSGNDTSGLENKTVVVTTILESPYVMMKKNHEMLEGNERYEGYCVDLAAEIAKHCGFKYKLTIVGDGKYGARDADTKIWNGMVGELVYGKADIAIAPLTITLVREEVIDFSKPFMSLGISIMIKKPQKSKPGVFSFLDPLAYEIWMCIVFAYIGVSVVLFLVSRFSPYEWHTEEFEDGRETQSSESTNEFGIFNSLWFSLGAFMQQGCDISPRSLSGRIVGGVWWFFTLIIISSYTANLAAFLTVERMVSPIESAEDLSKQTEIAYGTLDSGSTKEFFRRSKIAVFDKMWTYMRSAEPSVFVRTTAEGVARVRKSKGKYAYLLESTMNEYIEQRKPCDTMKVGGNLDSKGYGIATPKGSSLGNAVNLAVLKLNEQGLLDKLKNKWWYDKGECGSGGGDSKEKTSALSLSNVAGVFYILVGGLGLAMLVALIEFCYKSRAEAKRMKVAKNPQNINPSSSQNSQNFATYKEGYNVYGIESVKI
Chain of UniProt Q91V12 (whole entry, looked up): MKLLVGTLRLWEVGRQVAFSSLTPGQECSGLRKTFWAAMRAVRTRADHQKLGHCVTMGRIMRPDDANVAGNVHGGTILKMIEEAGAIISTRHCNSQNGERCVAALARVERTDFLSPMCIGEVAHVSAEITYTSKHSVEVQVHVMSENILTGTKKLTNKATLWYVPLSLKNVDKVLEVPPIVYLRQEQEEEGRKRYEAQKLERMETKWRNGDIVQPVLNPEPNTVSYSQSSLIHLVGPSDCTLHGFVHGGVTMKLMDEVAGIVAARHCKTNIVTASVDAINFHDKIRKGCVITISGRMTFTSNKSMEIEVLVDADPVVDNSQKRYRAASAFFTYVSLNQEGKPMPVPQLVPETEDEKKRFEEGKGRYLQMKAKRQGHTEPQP
Chain of UniProt Q9Y3A3 (whole entry, looked up): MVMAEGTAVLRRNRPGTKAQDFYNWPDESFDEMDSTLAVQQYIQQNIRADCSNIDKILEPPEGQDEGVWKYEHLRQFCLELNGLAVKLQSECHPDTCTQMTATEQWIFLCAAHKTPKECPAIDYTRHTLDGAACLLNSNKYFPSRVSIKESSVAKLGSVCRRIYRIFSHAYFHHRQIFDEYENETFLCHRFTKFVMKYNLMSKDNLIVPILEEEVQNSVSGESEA
Chain of UniProt P34972 (whole entry, looked up): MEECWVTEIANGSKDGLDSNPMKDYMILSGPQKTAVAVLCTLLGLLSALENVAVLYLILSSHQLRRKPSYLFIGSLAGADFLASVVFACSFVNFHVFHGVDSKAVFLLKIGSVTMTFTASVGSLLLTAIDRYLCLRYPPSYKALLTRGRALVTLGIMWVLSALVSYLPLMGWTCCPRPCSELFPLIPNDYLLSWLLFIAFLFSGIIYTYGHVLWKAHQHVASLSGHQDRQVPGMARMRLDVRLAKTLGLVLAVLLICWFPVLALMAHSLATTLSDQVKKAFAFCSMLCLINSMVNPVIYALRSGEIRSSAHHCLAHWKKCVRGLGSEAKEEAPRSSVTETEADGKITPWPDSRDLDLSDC

| Compound | target | test | test system | conditions | how to read | quantity | value |
| --- | --- | --- | --- | --- | --- | --- | --- |
| CCCCCC=CC=C1C(=O)C=CC1CC=CCCCC(=O)O (stereo not drawn) | MOB4 (Homo sapiens, UniProt Q9Y3A3) | competitive isoTOP-ABPP | proteome, soluble, MDA-MB-231 | 100 µM, 60 min, together with: iodoacetamide probe | reference: DMSO over compound-treated, higher = stronger cysteine blockade | isoTOP-ABPP competition ratio | 5.4 |
| CCOC(=O)C(CC)(CCCSCCOCCOCCNC(=O)OC(C)(C)C)NC(=O)c1ccc(C2CC2)c(Cc2ccc(F)cc2)n1 (racemic) | CNR2 (Homo sapiens, UniProt P34972) | radioligand binding |  |  | reference: CB1 over CB2 (human) | Ki ratio | 7 |
| Cc1cccc(C2(C(=O)Nc3c[nH]nc3-c3ccccc3)CC2)c1 | human kinase panel | binding, KINOMEscan |  | 10000 nM, %Ctrl below 10 |  | number of kinases hit | 0 |
| N#CN1CC[C@H](C(=O)Nc2nc3c(s2)CN(C(=O)CN=[N+]=[N-])CC3)C1 | CKB | click pull-down LC-MS/MS | HEK293T cells |  |  | total spectral count | 1 |
| O=C(N1CCCC1)n1cc(-c2ccc(-c3ccccc3)cc2)nn1 | Cytosolic acyl coenzyme A thioester hydrolase (Acot7, Mus musculus, UniProt Q91V12) | enzyme activity, inhibitor, competitive ABPP-SILAC, item: Acot7 | mouse T-cells | concentration not given, 4 h, treated in situ | reference: DMSO | activity ratio | 1.26 |
| CC[C@H](C)[C@H](NC(=O)[C@H](CCCC(=O)O)NC(=O)[C@H](CC(=O)O)NC(C)=O)C(=O)N[C@@H](CC(=O)O)C(=O)COC(=O)c1c(C)cccc1C | CASP7 | enzyme activity, inhibitor |  |  |  | kinact/KI | 488000 M⁻¹ s⁻¹ |
| CC(C)Oc1cc(Cl)ccc1CNc1cc(-c2ccccc2)nc2ncnn12 | GPR3 (Homo sapiens, UniProt P46089) | cAMP reporter | human cells | 100 pM | higher is more cAMP | cAMP luminescence | 36000 a.u. and 42400 a.u. and 55600 a.u. and 58700 a.u. and 16100 a.u. and 26600 a.u. and 44100 a.u. and 32000 a.u. |
| O=c1[nH]cnc2c(CNC(CO)COP(=O)(O)O)c[nH]c12 (stereo not drawn) | Hypoxanthine-guanine phosphoribosyltransferase (Trypanosoma cruzi, UniProt Q4DGA3) | inhibitor, inhibition pattern versus hypoxanthine |  | pH 8.3, 37 °C, together with: PRPP 1 mM fixed |  | Kii | 910 nM |
| C#CCCCC(=O)NCC1CN(CCCCCNC(=O)CN(CCN)C(=O)Cn2cnc3c(=O)[nH]c(N)nc32)CCN(CCCCCNC(=O)CN(CCN)C(=O)Cn2cnc3c(=O)[nH]c(N)nc32)CCN(CCCCCNC(=O)CN(CCN)C(=O)Cn2cnc3c(=O)[nH]c(N)nc32)CCN1CCCCCNC(=O)CN(CCN)C(=O)Cn1cnc2c(=O)[nH]c(N)nc21 (stereo not drawn) | T1, G-quadruplex DNA, G-quadruplex (Homo sapiens) | FRET melting |  |  |  | change in melting temperature | 11.8 °C |
| CCCC[C@H](NC(C)=O)C(=O)N[C@@H](CCC(=O)O)C(=O)N[C@@H](CO)C(=O)N[C@@H](CC(=O)O)C(=O)COC(=O)c1c(C)cccc1C | CASP7 | enzyme activity, inhibitor |  |  |  | kinact/KI | 3500 M⁻¹ s⁻¹ |
| COC(=O)Cc1cc2c(cc1C(=O)c1ccccc1)OCO2 | Gria2 (Rattus norvegicus, UniProt P19491) | glutamate-evoked current, whole-cell patch clamp | HEK-293T | concentration not given, glutamate alone after washout, together with: glutamate |  | current amplitude after recovery | 1250 ± 59 pA |
| COc1cc(/C=C/c2ccc(O)cc2)cc(OC)c1 | O-methyltransferase (Sorghum bicolor, UniProt A0A1B6PFV1) | biolayer interferometry |  | together with: SFG+ |  | cooperativity factor σ | 1.24 |
| C=CC(=O)N1CCCC(n2c(=O)c3ncccc3n(Cc3ccc(Oc4ccccc4)cc3)c2=O)C1 (stereo not drawn) | CKB | thermal proteome profiling | cell proteome | treated |  | melting temperature | 48.5 °C and 43.6 °C |
| NCc1ccc(NC(=O)c2cc(-c3ccccc3)n(-c3ccccc3)n2)cc1 | Genome polyprotein, NS2B-NS3 protease (dengue virus type 2, UniProt P29990) | reporter gene | HeLa | 12.5 µM |  | inhibition | 62% |
| CN(C)C/C=C/C(=O)Nc1ccc2nc(NCCCCCN(C)C)nc(NCCCCCCN(C)C)c2c1 | PRMT1 (Homo sapiens, UniProt Q99873) | methyltransferase activity, radiometric |  |  |  | Hill slope | -1.7 |

For quick reference, copied from above:
| Compound | target | test | test system | conditions | how to read | quantity | value |
| --- | --- | --- | --- | --- | --- | --- | --- |
| C=CC(=O)N1CCCC(n2c(=O)c3ncccc3n(Cc3ccc(Oc4ccccc4)cc3)c2=O)C1 (stereo not drawn) | CKB | thermal proteome profiling | cell proteome | treated |  | melting temperature | 48.5 °C and 43.6 °C |
| O=C(N1CCCC1)n1cc(-c2ccc(-c3ccccc3)cc2)nn1 | Cytosolic acyl coenzyme A thioester hydrolase (Acot7, Mus musculus, UniProt Q91V12) | enzyme activity, inhibitor, competitive ABPP-SILAC, item: Acot7 | mouse T-cells | concentration not given, 4 h, treated in situ | reference: DMSO | activity ratio | 1.26 |
